Measured values gathered from unrelated publications.
Parts stem from different laboratories: compare values within a part only. Positions count from the first letter of the parent shown.

Sample 1
Target: CCNA1, cyclin fold, Cln2 fusion (human)
Technique: yeast growth competition, sequencing
Matrix: yeast
Notes: strong parent motif
Baseline: not given
Direction: higher = stronger binding
Starting sequence: E2F1 docking peptide (human); PPVKRRLDFETDH
Under “normalised enrichment score”, `PPVKRRLDIETDH [F9I]` is recorded as 0.444.
`PPVKTRLDFETDH [R5T]`: “normalised enrichment score” 0.294.
`PPVKSRLDFETDH [R5S]`: “normalised enrichment score” -0.287.
`PPVKRRLQFETDH [D8Q]` — result for “normalised enrichment score”: 1.35.
For `PPVKRRLNFETDH [D8N]`, “normalised enrichment score” read 1.84.
Under “normalised enrichment score”, `PPVKRALDFETDH [R6A]` is recorded as 1.48.
`PPTKRRLDFETDH [V3T]`: “normalised enrichment score” 2.08.
`PPGKRRLDFETDH [V3G]` — result for “normalised enrichment score”: 0.548.
Under “normalised enrichment score”, `PPVKRRLDWETDH [F9W]` is recorded as 0.915.
`PPVKRRLDFKTDH [E10K]` — result for “normalised enrichment score”: 1.49.
`PPVKRGLDFETDH [R6G]`: “normalised enrichment score” 0.669.
`PPVKRRLDFEMDH [T11M]`: “normalised enrichment score” 1.89.
Under “normalised enrichment score”, `PPVKRRLDFETNH [D12N]` is recorded as 1.88.
For `PPVKRRLDFESDH [T11S]`, “normalised enrichment score” read 1.98.
`PPVQRRLDFETDH [K4Q]`: “normalised enrichment score” 1.63.
`PPVKRRLDFETMH [D12M]`: “normalised enrichment score” 2.07.
Under “normalised enrichment score”, `PPVYRRLDFETDH [K4Y]` is recorded as 0.913.
`PPVKRRLDFEGDH [T11G]` — result for “normalised enrichment score”: 1.78.
For `PPVKRRLMFETDH [D8M]`, “normalised enrichment score” read 1.58.
Under “normalised enrichment score”, `PPVKRWLDFETDH [R6W]` is recorded as 0.473.
`PPVKRRLDPETDH [F9P]` — result for “normalised enrichment score”: 0.103.
`PPVKRRLDFETFH [D12F]` — result for “normalised enrichment score”: 1.93.
`PPVKRRLDFFTDH [E10F]` — result for “normalised enrichment score”: 1.32.
`PPVKGRLDFETDH [R5G]` — result for “normalised enrichment score”: 0.207.
`PPVKRRLDFEPDH [T11P]` — result for “normalised enrichment score”: 1.95.

Sample 2
Target: Histone acetyltransferase KAT6A, both winged helices, GST fusion (KAT6A, Homo sapiens, UniProt Q92794, residues 1-181)
Technique: protein binding microarray
Molecule type: double-stranded DNA, one strand shown
Matrix: in vitro
Tested at: not given
Notes: 8-mer, flanks averaged, mean of 2 arrays, mostly near background
Baseline: not given
Direction: higher = stronger binding
Construct (chain): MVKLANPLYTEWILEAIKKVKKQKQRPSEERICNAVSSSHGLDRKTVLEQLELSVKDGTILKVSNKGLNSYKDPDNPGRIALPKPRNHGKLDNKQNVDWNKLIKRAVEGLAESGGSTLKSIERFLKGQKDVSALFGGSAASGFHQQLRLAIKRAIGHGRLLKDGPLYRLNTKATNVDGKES
For `CCGATCGG`, the E-score was 0.261.
`CATCGCCG` has an E-score of 0.297.
With `GCTGGGGA` the E-score was -0.17.
For `AAGACAGG`, the E-score was -0.242.
For `CAGTTGGG`, the E-score was -0.167.
`GGGAAAAC` gave an E-score of 0.0533.
`ACTGAAAG` gave an E-score of 0.0708.
`CGCCTAAA` has an E-score of 0.17.
For `CTAGTCTA`, the E-score was -0.226.
With `ACTATTAG` the E-score was -0.127.
For `GCGAGCCC`, the E-score was 0.142.
With `AACTATGG` the E-score was -0.139.
`CCCCCATA` has an E-score of -0.218.
The E-score of `AAATCATC` is reported as -0.202.
With `ACATACCC` the E-score was -0.123.
`ACGAGTGG` gave an E-score of -0.145.
With `AAGCGGGT` the E-score was 0.231.
For `CAAATTTA`, the E-score was -0.0538.
The E-score of `GGGTGTTA` is reported as -0.00085.
`CCCCCCGG` gave an E-score of 0.157.
`GTCTAGCA` has an E-score of -0.119.
The E-score of `AAGATGGT` is reported as -0.144.
The E-score of `CGCTCTTA` is reported as 0.166.
For `ATTCGGTA`, the E-score was 0.12.
`CAGTTCGG` gave an E-score of 0.0609.

Sample 3
Target: Protein C-ets-1 (ETS1, Homo sapiens, UniProt P14921, residues 1-441, Y397A, full length assumed)
Technique: protein-binding microarray
Molecule type: double-stranded DNA, one strand shown
Matrix: in vitro
Tested at: not given
Notes: k-mer, scored over probes, only values ≥0.25
Direction: higher = stronger binding
Construct (chain): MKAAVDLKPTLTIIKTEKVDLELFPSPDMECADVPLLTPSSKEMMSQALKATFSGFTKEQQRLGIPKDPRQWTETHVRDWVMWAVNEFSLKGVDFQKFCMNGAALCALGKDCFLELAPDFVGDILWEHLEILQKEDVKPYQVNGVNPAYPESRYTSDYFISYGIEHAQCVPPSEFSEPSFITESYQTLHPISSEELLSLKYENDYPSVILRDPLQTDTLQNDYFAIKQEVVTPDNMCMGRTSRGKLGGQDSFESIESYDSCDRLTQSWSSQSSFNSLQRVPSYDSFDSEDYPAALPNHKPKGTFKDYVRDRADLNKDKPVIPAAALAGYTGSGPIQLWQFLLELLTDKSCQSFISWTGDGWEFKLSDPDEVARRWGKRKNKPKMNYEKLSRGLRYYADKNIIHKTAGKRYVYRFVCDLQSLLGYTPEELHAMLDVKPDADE
With `CGACAAAC` the E-score was 0.329.
`GACGTCGA` gave an E-score of 0.255.
The E-score of `CAGCAAAC` is reported as 0.331.
`ACAATTGC` gave an E-score of 0.294.
`AATGACAA` gave an E-score of 0.309.
`CATTTCCC` has an E-score of 0.258.
`GCCCACCC` has an E-score of 0.299.
`CCGCCAAC` gave an E-score of 0.263.
The E-score of `TGACAAAA` is reported as 0.464.
The E-score of `TTGCCAAA` is reported as 0.378.
For `GTCGTACA`, the E-score was 0.298.
For `ATACAAAT`, the E-score was 0.277.
`TAATTGTA` gave an E-score of 0.272.
`CCGACAAA` has an E-score of 0.404.
The E-score of `ACTGACAA` is reported as 0.357.
With `TGCAGGAA` the E-score was 0.26.
The E-score of `GTCGTCAA` is reported as 0.324.
`AACGTTGT` gave an E-score of 0.321.
`CGCACAAG` has an E-score of 0.324.
For `GGGGCGGA`, the E-score was 0.384.
`TACATGTA` gave an E-score of 0.283.
For `GTGACAAC`, the E-score was 0.315.

Sample 4
Target: ATF2, bZIP domain (human)
Technique: DHFR protein complementation
Matrix: yeast
Notes: single substitutions, most at no-binding floor
Baseline: wild-type JUN-FOS pair
Direction: higher = stronger binding
Starting sequence: JUN, bZIP domain (human); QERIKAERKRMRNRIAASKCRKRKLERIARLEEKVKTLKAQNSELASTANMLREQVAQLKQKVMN; partner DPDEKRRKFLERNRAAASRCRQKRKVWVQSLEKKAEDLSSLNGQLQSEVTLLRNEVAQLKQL
The binding fitness of `M51T` is reported as -1.42 natural log.
With `S43W` the binding fitness was -1.47 natural log.
`A57P` gave a binding fitness of -1.49 natural log.
`T37D` gave a binding fitness of -1.44 natural log.
`L38C` gave a binding fitness of -1.5 natural log.
For `K36D`, the binding fitness was -1.45 natural log.
For `A49N`, the binding fitness was -1.45 natural log.
`E54H` has a binding fitness of -1.33 natural log.
`E54N` gave a binding fitness of -1.33 natural log.
For `E32C`, the binding fitness was -1.16 natural log.
The binding fitness of `A29N` is reported as -1.34 natural log.
The binding fitness of `E44N` is reported as -1.47 natural log.
`K39V` gave a binding fitness of -1.46 natural log.
`A57G` gave a binding fitness of -1.39 natural log.
The binding fitness of `L31P` is reported as -1.48 natural log.
`Q41S` has a binding fitness of -1.52 natural log.
With `L52E` the binding fitness was -1.46 natural log.
For `E33T`, the binding fitness was -1.44 natural log.
The binding fitness of `R30I` is reported as -1.4 natural log.
`E44K` gave a binding fitness of -1.49 natural log.
With `N42E` the binding fitness was -1.46 natural log.
With `N42W` the binding fitness was -1.42 natural log.
For `E33Q`, the binding fitness was -1.47 natural log.
`M51G` gave a binding fitness of -1.42 natural log.
For `K34H`, the binding fitness was -1.34 natural log.

Sample 5
Substance: PhoQ, residues 284 288 289 292 302 303 ASVMEA
Technique: Sort-seq
Item: YFP reporter
Matrix: E. coli
Notes: PhoQ-PhoP variant library
Together with: 10 µM Mg2+
Baseline: high Mg2+ state
Direction: higher = stronger signaling
The fold induction was 2.54 (PhoP, residues 12 14 15 18 19 TPWTL (Escherichia coli, UniProt P23836)).
It gave 12.2 for fold induction (PhoP, residues 12 14 15 18 19 NFFVT (Escherichia coli, UniProt P23836)).
PhoP, residues 12 14 15 18 19 VGHWL (Escherichia coli, UniProt P23836) — fold induction: 1.95.
PhoP, residues 12 14 15 18 19 LHHYF (Escherichia coli, UniProt P23836) — fold induction: 6.7.

Sample 6
Target: ABI1, truncated, D143A, DHFR fusion (Arabidopsis thaliana)
Technique: DHFR PCA, deep sequencing
Matrix: yeast
Notes: methotrexate growth selection, single substitutions
Together with: (+)-ABA 0.032 µM
Baseline: wild-type fitted maximum
Direction: higher = stronger binding
Starting sequence: PYL1, truncated, DHFR fusion (Arabidopsis thaliana); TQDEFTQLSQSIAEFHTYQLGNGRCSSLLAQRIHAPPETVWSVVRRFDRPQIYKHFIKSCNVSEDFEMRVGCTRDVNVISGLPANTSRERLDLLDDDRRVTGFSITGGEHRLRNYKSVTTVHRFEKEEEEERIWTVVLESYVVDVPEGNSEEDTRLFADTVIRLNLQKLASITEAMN
Under “relative binding score”, `D153V` is recorded as 2.24%.
For `S87Q`, “relative binding score” read 50.4%.
For `V40L`, “relative binding score” read 5.62%.
Under “relative binding score”, `H122N` is recorded as 7.26%.
For `Y141K`, “relative binding score” read -10.3%.
Under “relative binding score”, `I105G` is recorded as -2.08%.
`L169I` — result for “relative binding score”: -8.21%.
For `R46Q`, “relative binding score” read 44.7%.
`E131A` — result for “relative binding score”: 37.9%.
`R49P`: “relative binding score” 7.7%.
`S63I` — result for “relative binding score”: 4%.
For `T106Y`, “relative binding score” read 6.58%.
`W41D` — result for “relative binding score”: -5.87%.
For `W134C`, “relative binding score” read 26.3%.
`S26W` — result for “relative binding score”: -0.466%.
Under “relative binding score”, `S59Y` is recorded as 0.226%.
For `S80R`, “relative binding score” read 1.2%.
For `Q31L`, “relative binding score” read 2.13%.
`N61C`: “relative binding score” 24%.
For `H122E`, “relative binding score” read 0.231%.
`R24F` — result for “relative binding score”: -0.63%.
For `Q19C`, “relative binding score” read 9.1%.
For `T106S`, “relative binding score” read 1.63%.
For `A30W`, “relative binding score” read 18%.
`V161N` — result for “relative binding score”: 20.3%.
